Measurements from different studies.
Numbered parts are unrelated; each lists some results of a single study. Substitutions count along the parent as printed.

Set 1 — technique: RNA Bind-n-Seq; form: RNA; medium: in vitro; tested at: not given; setting: RNA with constant flanks, ends assumed; reference: input RNA pool; reading: higher = stronger binding
Target: RING finger protein unkempt homolog, zinc fingers 1-6, GST-SBP tag (UNK, Homo sapiens, UniProt Q9C0B0, residues 30-357)
Chain of UniProt Q9C0B0 (30-357, looked up): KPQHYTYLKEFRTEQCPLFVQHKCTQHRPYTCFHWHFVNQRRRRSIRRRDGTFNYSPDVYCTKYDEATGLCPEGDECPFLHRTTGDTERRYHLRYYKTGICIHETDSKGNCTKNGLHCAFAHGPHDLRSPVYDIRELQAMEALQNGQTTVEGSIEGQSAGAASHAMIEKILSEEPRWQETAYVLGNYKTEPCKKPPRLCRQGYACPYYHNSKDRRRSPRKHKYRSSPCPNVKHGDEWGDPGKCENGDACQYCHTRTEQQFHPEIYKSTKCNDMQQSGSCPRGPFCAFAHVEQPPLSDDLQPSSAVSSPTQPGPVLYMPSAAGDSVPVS
The bound/input enrichment of `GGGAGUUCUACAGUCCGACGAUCCCGGGACACUGCCUGAUGUUCGAUCACCGGCCACGGUCCUGGCGAGAGCUGCCCCUGCGGCCCGCUGACUUUGGUGUGCUGCAUAGGAAUGAGCUCUCGGGGGCUCUCACCGGGCUCACACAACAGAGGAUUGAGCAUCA` is reported as 0.123 ratio.
`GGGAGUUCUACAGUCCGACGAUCUUGUGUAGAGCCCAACACGAACUUCACUUCCAAGCUGCCACCUAUCUCUGCCUUUUGAGCCGCAUCCGGCAACAUGUAGCCCUUCAUCAGGAAUUUCAUGGCAAGGGUGAGCGUUCAGUGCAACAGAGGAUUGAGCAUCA` gave a bound/input enrichment of 0.188 ratio.
For `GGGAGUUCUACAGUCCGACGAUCUGUGGCCUUUCUGAGGAGAAAGCUGUGGAGAAGUUUGGGGAAGAAAAUAUUGAGGUUUACCACCGUUACUUUUGGCCAUUGGAAUGGACGAUUCCGUCAAGAGAUAACAACAAAUGUUAUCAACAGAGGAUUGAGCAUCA`, the bound/input enrichment was 0.146 ratio.
`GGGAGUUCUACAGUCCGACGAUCCUUACACAUAAACUGGUAUUUUCGAACAAUAGGAAACUAUUUUUUCUCCUUUUUUUACAGUUUCCGUACGUAUCUGGCUUGUAUGUGGAAGACUAAAAAGUUGAUUUGCUAAAUGUGGUCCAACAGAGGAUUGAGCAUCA` gave a bound/input enrichment of 0.208 ratio.
The bound/input enrichment of `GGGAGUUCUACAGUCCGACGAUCGCGGCCUCAUUGCUCCGUUUUCAGAGUACCUUGGUAAUAGCUGAGCAUGCAAAUGAUUCCCCCGCACCCAUUACUCUAAAUACUAUCACUGCAGCUGGACGUCUUGGAGGUGAAGUGUCCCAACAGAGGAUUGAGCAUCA` is reported as 0.324 ratio.
The bound/input enrichment of `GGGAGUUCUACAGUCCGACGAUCGAGAGAGAAAAACUCGUGAAAGCUGAAAGAAAAUUCAUUGAAGAUAGGGUUAAAAAAAUAACCGAACUGAAAAGGAAAGUCUGUGGCGAUUCAGAUAAAGGAUUUGUUGUUAUUAAUCAACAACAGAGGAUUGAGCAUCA` is reported as 0.42 ratio.
For `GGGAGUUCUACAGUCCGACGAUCUUAGAUCUCUGAGGCUCAGAAAAAGGAAAGGGUGUCUCAUCCCGCUUUCUCGCUUUUCGCUUCCGCCAUGGCGGAGACAGGGGCCGGGAUAAGUGAGACCGUCACUGAGACAACGGUUACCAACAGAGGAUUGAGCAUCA`, the bound/input enrichment was 0.138 ratio.

Set 2 — technique: RNA Bind-n-Seq; form: RNA; medium: in vitro; tested at: 1 µM; setting: whole 134-nt RNA, ends assumed; with: 150 mM KCl; reference: input library; reading: higher = stronger binding
Target: Ras GTPase-activating protein-binding protein 1, RRM domain (G3BP1, Homo sapiens, UniProt Q13283)
Chain of UniProt Q13283 (whole entry, looked up): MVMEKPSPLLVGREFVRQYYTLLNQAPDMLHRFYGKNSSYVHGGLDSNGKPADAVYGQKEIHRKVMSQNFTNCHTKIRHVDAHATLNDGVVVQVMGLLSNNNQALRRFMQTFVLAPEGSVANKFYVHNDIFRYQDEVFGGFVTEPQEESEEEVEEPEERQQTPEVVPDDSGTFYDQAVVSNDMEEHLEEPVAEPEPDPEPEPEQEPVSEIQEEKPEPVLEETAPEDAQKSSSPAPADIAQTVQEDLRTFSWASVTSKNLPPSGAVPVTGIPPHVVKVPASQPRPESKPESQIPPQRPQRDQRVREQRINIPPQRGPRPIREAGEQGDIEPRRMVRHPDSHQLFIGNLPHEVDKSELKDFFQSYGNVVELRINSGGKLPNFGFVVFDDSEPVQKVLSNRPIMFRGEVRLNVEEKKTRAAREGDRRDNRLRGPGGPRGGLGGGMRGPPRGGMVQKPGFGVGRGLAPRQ
For `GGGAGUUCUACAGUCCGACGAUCACGCUCCAUGAAAGCUAGGAGGGAGUGAAAUAUCAGUGAUCAUCGCAAGGAAGGAGGCAGACAAGAGUAAGGCACACCUGACUCUUAGGAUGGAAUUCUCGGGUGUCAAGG`, the log2 enrichment was -0.186.
`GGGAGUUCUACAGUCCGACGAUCACCAUUCAGGUGGGCAUCUUUGGGAAGUGGGGCAAGGGGGGGAUAGGGAGGGGGGUAACACUUUGGGAACAGGUGGUCCCAGGUCGUUUCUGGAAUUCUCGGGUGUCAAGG` has a log2 enrichment of -0.487.
The log2 enrichment of `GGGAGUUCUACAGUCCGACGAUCUCAAGUCCUGUGCUACACAUCGUAUGUACCGAAUCGGAAAGGUUUUUUUGGAGGAAAGUAUUAUGUUACGCCGUUCGGAUCUGCACUUCCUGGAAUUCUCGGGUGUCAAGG` is reported as -0.301.
With `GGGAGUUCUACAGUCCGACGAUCUAACUUUAGAGGAGGAUCUGAUGGAUAUGGCAGUGGACGUGGAUUUGGGGAUGGCUAUAAUGGGUAUGGAGGAGGACCUGGAGGUGGCAAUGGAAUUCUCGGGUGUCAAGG` the log2 enrichment was -0.345.
`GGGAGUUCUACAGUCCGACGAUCCUGUGCUACACAUCGUAUGUACCGAAUCGGCCCCCCCGGGCCCCCCCGGGGCCCCCCCGGGAAAGUAUUAUGUUACGCCGUUCGGAUCUGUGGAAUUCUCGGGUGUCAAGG` gave a log2 enrichment of -0.616.
For `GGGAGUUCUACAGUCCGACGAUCUCCUGUGCUACACAUCGUAUGUACCGAAUCGGGCCCCCCGGCCCCCCGGGCCCCCCGGGAAAGUAUUAUGUUACGCCGUUCGGAUCUGCAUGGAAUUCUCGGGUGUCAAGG`, the log2 enrichment was -0.431.
`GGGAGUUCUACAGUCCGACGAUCUAACUUUAGAGGAGGAUCUGAUGGAUAUGGCAGUGGACGUGGAUUUGGGGAUGGCUAUAAUGGGUAUGGAGGAGGACCUGGAGGUGGCAGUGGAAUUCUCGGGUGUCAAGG` has a log2 enrichment of -0.21.
With `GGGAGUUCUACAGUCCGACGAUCCUGUGCUACACAUCGUAUGUACCGAAUCGGGCCCCCCCGGGCCCCCCCGGGGCCCCCCCGGAAAGUAUUAUGUUACGCCGUUCGGAUCUGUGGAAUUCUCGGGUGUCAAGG` the log2 enrichment was -0.613.
For `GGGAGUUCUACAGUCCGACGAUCUAGUAACAGGGGUGAAGAUGCCUUUUGUGAUCCUGAAGAUGAAUGGGAACCCGACAUUACAGAUGCACCAGUUUCUUCACUUUCUAGAAGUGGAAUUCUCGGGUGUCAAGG`, the log2 enrichment was -0.228.
The log2 enrichment of `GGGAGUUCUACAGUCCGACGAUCUUCAGUUAUUCAAGCGGAGAAAUGUUGCUACAGCAGAAGAAGAAACAGAAGAAGAAGUUAUGUCAGAUGGAGGCUUUCAUGAGGCUCAGAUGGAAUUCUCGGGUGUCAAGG` is reported as -0.267.

Set 3 — technique: universal PBM; form: double-stranded DNA, one strand shown; medium: in vitro; tested at: 600 nM; reading: higher = stronger binding
Target: Sal-like protein 4, full length isoform A (SALL4, Homo sapiens, UniProt Q9UJQ4, residues 1-1053)
Chain of UniProt Q9UJQ4 (whole entry, looked up): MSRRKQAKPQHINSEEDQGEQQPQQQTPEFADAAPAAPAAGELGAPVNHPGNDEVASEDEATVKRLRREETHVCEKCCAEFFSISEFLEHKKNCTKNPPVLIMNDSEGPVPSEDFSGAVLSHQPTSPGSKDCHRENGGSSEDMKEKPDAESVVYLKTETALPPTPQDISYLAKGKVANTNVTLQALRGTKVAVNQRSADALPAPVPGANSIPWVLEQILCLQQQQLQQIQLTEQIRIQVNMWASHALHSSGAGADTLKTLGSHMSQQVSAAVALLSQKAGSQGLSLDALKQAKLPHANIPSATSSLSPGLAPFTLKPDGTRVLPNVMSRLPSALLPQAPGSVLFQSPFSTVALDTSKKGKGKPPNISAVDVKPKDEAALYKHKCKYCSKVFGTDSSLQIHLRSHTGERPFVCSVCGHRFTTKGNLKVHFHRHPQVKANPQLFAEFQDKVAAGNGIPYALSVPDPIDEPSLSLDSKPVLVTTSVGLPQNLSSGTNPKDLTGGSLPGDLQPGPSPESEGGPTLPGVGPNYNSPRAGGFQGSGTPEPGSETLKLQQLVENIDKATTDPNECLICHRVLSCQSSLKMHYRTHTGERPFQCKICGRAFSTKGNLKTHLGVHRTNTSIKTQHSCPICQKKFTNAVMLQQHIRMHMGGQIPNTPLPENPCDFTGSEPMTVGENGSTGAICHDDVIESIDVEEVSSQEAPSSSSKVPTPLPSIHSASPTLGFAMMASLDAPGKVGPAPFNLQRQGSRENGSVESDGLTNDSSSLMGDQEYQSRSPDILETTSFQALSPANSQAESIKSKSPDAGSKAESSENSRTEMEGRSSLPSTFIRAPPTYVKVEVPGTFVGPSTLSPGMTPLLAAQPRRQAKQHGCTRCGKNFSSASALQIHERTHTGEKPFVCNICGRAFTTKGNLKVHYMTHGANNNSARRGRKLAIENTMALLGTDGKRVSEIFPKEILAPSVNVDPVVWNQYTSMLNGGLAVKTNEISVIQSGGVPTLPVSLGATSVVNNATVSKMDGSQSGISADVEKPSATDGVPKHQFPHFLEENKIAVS
Setting: 8-mer, flanks averaged, mean of replicates
With `CAGAGGGG` the E-score was -0.351.
The E-score of `AATACTGC` is reported as 0.117.
`CAGTAGCC` gave an E-score of -0.189.
With `ACCTATGG` the E-score was -0.066.
`TAGTGAAA` has an E-score of 0.179.
`CCCAAACC` gave an E-score of -0.222.
With `AACCTTGA` the E-score was 0.00838.
With `AGGGTCAT` the E-score was -0.0201.
The E-score of `CCCCGGGA` is reported as -0.303.
The E-score of `AGATGTCC` is reported as -0.0661.
For `AAACTATA`, the E-score was 0.258.
For `GTTCTAGA`, the E-score was 0.0512.
For `ACTGAGAG`, the E-score was -0.116.
`ATCATCAT` gave an E-score of 0.313.
`CGCCCCCG` has an E-score of -0.381.
With `GGGGTGTA` the E-score was -0.226.
`GGTTCGTA` gave an E-score of -0.0256.
With `CAGAAAGG` the E-score was -0.0827.
With `CCAATTCA` the E-score was 0.149.
For `CAGAGGCC`, the E-score was -0.288.
With `CGCTATTC` the E-score was 0.0891.
`GATGATTA` has an E-score of 0.193.
For `CCGAGGAG`, the E-score was -0.215.
For `CAACGTAG`, the E-score was 0.0802.

Set 4 — target: CCND2, cyclin fold, Cln2 fusion (human); technique: yeast growth competition, sequencing; medium: yeast; setting: weak parent motif; reference: not given; reading: higher = stronger binding
Starting sequence: E2F1 docking peptide (human); PPVKRRLDLETDH; partner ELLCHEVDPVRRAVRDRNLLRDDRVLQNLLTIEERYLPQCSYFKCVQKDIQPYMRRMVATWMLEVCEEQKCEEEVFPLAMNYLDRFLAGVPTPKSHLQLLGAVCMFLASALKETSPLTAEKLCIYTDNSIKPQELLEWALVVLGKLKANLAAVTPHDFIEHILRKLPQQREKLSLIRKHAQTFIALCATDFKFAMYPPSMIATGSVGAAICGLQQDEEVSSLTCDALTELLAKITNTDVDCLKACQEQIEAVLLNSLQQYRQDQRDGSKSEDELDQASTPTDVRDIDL
`PPVKRRLDLEDDH [T11D]` — result for “normalised enrichment score”: -0.0782.
`PPVKRRLNLETDH [D8N]`: “normalised enrichment score” 0.249.
`PPVKERLDLETDH [R5E]`: “normalised enrichment score” 0.37.
For `PPVRRRLDLETDH [K4R]`, “normalised enrichment score” read 0.00656.
`PPVKRALDLETDH [R6A]`: “normalised enrichment score” 0.186.
For `EPVKRRLDLETDH [P1E]`, “normalised enrichment score” read -0.0158.
For `PPVKRRLDLMTDH [E10M]`, “normalised enrichment score” read 0.301.
`PPVKRRLDLETMH [D12M]`: “normalised enrichment score” 0.291.
`PPVKRRLHLETDH [D8H]` — result for “normalised enrichment score”: -0.0611.
`PPFKRRLDLETDH [V3F]` — result for “normalised enrichment score”: 0.266.
Under “normalised enrichment score”, `PPVKRRWDLETDH [L7W]` is recorded as 0.391.
`PPVKRRQDLETDH [L7Q]`: “normalised enrichment score” 0.118.
For `PPVKRRLDLHTDH [E10H]`, “normalised enrichment score” read 0.588.
For `PPVKIRLDLETDH [R5I]`, “normalised enrichment score” read 0.0909.
`PPVSRRLDLETDH [K4S]` — result for “normalised enrichment score”: 0.281.
`PPVKFRLDLETDH [R5F]`: “normalised enrichment score” -0.0301.
For `PPQKRRLDLETDH [V3Q]`, “normalised enrichment score” read 0.523.
`PPVKRRLDLYTDH [E10Y]`: “normalised enrichment score” -0.145.

Some of these lines once more (set 3):
With `CAGAGGGG` the E-score was -0.351.
`GGTTCGTA` gave an E-score of -0.0256.
For `CAGAGGCC`, the E-score was -0.288.
The E-score of `AATACTGC` is reported as 0.117.
`TAGTGAAA` has an E-score of 0.179.
For `AAACTATA`, the E-score was 0.258.
